Measured values from different studies.
Every numbered part comes from another study and shows a few of its results, in no order.

Set 1
Target: Interferon regulatory factor 3, full length, phosphomimetic (IRF3, Homo sapiens, UniProt Q14653, residues 1-427, S386D/S396D/S398D/S402D/T404D/S405D)
Chain of UniProt Q14653 (whole entry, unmodified, looked up): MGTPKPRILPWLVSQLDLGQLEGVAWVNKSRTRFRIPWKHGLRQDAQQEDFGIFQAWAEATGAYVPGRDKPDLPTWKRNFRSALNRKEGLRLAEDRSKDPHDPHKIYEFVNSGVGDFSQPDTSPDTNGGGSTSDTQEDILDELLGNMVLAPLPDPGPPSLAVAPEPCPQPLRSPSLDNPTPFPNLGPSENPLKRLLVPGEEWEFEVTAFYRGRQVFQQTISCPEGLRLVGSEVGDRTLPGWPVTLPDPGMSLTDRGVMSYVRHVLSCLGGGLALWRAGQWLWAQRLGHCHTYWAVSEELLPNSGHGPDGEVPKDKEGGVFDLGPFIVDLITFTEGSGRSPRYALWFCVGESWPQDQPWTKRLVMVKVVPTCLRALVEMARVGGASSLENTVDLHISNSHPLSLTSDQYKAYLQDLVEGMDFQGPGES
Technique: protein-binding microarray
Form: double-stranded DNA, one strand shown
Sample: in vitro
Tested at: 2540 nM top
Setting: 60-bp whole probe
Together with: salmon DNA 0.4 mg/ml
Baseline: random background probes
Reading: higher = stronger binding
All sequences stand within: GCCTAGCAC … GTCTTGATTCGCTTGACGCTGCTG
Oligonucleotide | fitted relative affinity [z-score]
GACGGTATCGACTATCGGCACGTGCTA | 0.491
TTAGATATCAGTCCCGATTAGTGCTAG | 0.454
TGATTGGTTGAACATGAACTGTGCTAG | -0.102
TTAGAACTGCGGACTGGATTAGTGCTA | -0.584
TTAGGTTTGCTACTGCTTTAGTGCTAG | -0.394

Set 2
Target: Hepatocyte nuclear factor 3-beta, forkhead domain (FOXA2, Homo sapiens, UniProt Q9Y261, residues 142-269)
Technique: protein-binding microarray
Form: double-stranded DNA, one strand shown
Sample: in vitro
Tested at: not given
Setting: k-mer, scored over probes, only values ≥0.25
Reading: higher = stronger binding
Construct (chain): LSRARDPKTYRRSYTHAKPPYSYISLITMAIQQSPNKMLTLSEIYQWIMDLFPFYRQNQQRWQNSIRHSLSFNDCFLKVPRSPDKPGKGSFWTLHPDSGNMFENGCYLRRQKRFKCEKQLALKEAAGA
Oligonucleotide | E-score
ATTGAAAT | 0.288
GCCATATA | 0.321
ATAACGAA | 0.329
ATGTGAAG | 0.277

Set 3
Target: Phosphate system positive regulatory protein PHO4, full length, GST-tagged (PHO4, Saccharomyces cerevisiae, UniProt P07270, residues 1-312)
Chain of UniProt P07270 (whole entry, looked up): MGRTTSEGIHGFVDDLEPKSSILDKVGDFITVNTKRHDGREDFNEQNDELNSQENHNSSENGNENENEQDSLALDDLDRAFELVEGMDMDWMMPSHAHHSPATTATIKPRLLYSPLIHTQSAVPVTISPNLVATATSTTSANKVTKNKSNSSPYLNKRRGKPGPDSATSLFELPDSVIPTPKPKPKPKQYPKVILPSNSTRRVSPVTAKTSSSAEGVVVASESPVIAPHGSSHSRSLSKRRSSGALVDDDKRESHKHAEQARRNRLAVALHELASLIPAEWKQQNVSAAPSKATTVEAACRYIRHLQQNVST
Technique: competition protein-binding microarray
Form: double-stranded DNA, one strand shown
Sample: in vitro
Tested at: 2 µM
Setting: whole 60-bp probe, lowest competitor level
Together with: Cbf1 competitor, 0.05 µM
Reading: higher = stronger binding
Oligonucleotide | fluorescence intensity [a.u.]
AAAGCGGTAATTTTTCACGTGAACTCACATATCTATGTCTTGATTCGCTTGACGCTGCTG | 9440
CGGGGTTAAGTTTGCCGAGTGGGTGGCTTGCAGCAGGTCTTGATTCGCTTGACGCTGCTG | 4710
AGCAAAGGAGACTTAAACGTGAGAGAGACCTGGCCTGTCTTGATTCGCTTGACGCTGCTG | 7010
AAATTACTAAGTTGTCACTCAACTTACCCCGTATGAGTCTTGATTCGCTTGACGCTGCTG | 3570

Single results of other studies
Substance | target | test | system | setting | how to read | quantity | value
PhoQ, residues 284 288 289 292 302 303 TYGVAM | PhoP, residues 12 14 15 18 19 LHSVW (Escherichia coli, UniProt P23836) | Sort-seq, measured: YFP reporter | E. coli | PhoQ-PhoP variant library, together with: 10 µM Mg2+ | baseline: high Mg2+ state, higher = stronger signaling | fold induction | 8.68

Some of these lines once more (set 2):
Oligonucleotide | E-score
GCCATATA | 0.321
